Measured values collected from several papers.
Each line is one published result; not all experiments were run side by side. Numbers after ± are the reported error.

SMILES	assay	system	conditions	half-life [h]
COc1cc(N2CCC(N3CCN(C)CC3)CC2)ccc1Nc1ncc(Cl)c(Nc2ccccc2P(C)(C)=O)n1	–	healthy humans, plasma	oral, 90 mg, with: itraconazole 200 mg twice daily	44.9
O=CC[C@@H](O)[C@H](O)[C@H](O)CO	HPLC-fluorescence	human patients, plasma	oral, 45 mg/kg/day, cycle 1	7.3 ± 1.6
Cc1ccc(NC(=O)c2ccc(CN3CCN(C)CC3)cc2)cc1Nc1nccc(-c2cncc(-c3oncc3C)c2)n1	–	older healthy human adults, plasma	oral, 325 mg single dose, fed, mean	32.7
CC(C)(C)OC[C@@H]1C(=O)NCCN1C(=O)C[C@H](N)Cc1cc(F)c(F)cc1F	–	human, male, plasma	oral, single dose, fixed-dose combination with metformin, fed	35.5 ± 12.9
O=C(c1cccnc1-c1ccncc1)N1CCC(O)(Cc2ccccc2)CC1	–	healthy human, plasma	oral, 600 mg once daily, day 1, arithmetic mean	4.83
CO[C@H]1C[C@@H]2CC[C@@H](C)[C@@](O)(O2)C(=O)C(=O)N2CCCC[C@H]2C(=O)O[C@H]([C@H](C)C[C@@H]2CC[C@@H](O)[C@H](OC)C2)CC(=O)[C@H](C)/C=C(\C)[C@@H](O)[C@@H](OC)C(=O)[C@H](C)C[C@H](C)/C=C/C=C/C=C/1C	–	human, whole blood	oral, 35 mg, without grapefruit juice	43
CN(C)C(=O)c1cc2cnc(Nc3ccc(N4CCNCC4)cn3)nc2n1C1CCCC1	–	human, moderate renal impairment, plasma	oral, 400 mg, geometric mean	50.2
CCn1c(C(=O)c2cc(C)cc(C#N)c2)c(C(C)C)c(=O)[nH]c1=O	–	healthy humans, plasma	oral, 75 mg once daily, 7 days	22.1 ± 5.4
CCCCC1(CCCC)CN(c2ccccc2)c2cc(SC)c(OCC(=O)N[C@@H](C(=O)NCC(=O)O)c3ccccc3)cc2S(=O)(=O)C1	LC-MS/MS	human, plasma	oral, 20 mg, single dose, fasted	11.5
CCCC[C@H](NC(C)=O)C(=O)N[C@H]1CCC(=O)NC[C@@H](C(=O)N[C@@H](Cc2c[nH]c3ccccc23)C(N)=O)NC(=O)[C@H](CCCNC(=N)N)NC(=O)[C@@H](Cc2ccccc2)NC(=O)[C@H](Cc2c[nH]cn2)NC1=O	–	healthy human, both sexes, plasma	subcutaneous, 1.0 mg once daily, day 7, median	7.2
COCCCCn1c(C(=O)N(CC(C)C)[C@@H]2CNC[C@H](C(=O)N3CCOCC3)C2)nc2ccccc21	–	non-elderly human, plasma	oral, 80 mg once daily, day 7	11

For quick reference, copied from above:
SMILES	assay	system	conditions	half-life [h]
CO[C@H]1C[C@@H]2CC[C@@H](C)[C@@](O)(O2)C(=O)C(=O)N2CCCC[C@H]2C(=O)O[C@H]([C@H](C)C[C@@H]2CC[C@@H](O)[C@H](OC)C2)CC(=O)[C@H](C)/C=C(\C)[C@@H](O)[C@@H](OC)C(=O)[C@H](C)C[C@H](C)/C=C/C=C/C=C/1C	–	human, whole blood	oral, 35 mg, without grapefruit juice	43
